{"data": "Measured values of several laboratories", "rep main protease": "Replicase polyprotein 1ab, main protease (rep, Severe acute respiratory syndrome coronavirus 2, UniProt P0DTD1)", "note": "Lines come from different studies, so protocols differ. Several values in a cell are separate wells, animals, samples, runs or records. Numbers after ± are the reported error."}
{"Compound": "COc1ccc(C[C@@H]2c3cc(Oc4cc(C[C@@H]5c6cc(O)c(OC)cc6CCN5C)ccc4O)c(OC)cc3CCN2C)cc1", "target or system": "SARS-CoV-2", "test": "cytopathic effect", "system": "Vero E6", "setting": "25 µM, first run", "quantity": "inhibition", "result": "0%"}
{"Compound": "C=CC(C)(C)c1cc(/C=C/C(=O)c2ccc(O)cc2)c(OC)cc1O", "target or system": "SARS-CoV-2", "test": "viral replication", "system": "Vero E6, USA-WA1/2020", "setting": "2.5 µM", "quantity": "inhibition", "result": "52.3%"}
{"Compound": "CCN(CCO)CCCC(C)Nc1ccnc2cc(Cl)ccc12 (centres unmarked)", "target or system": "SARS-CoV-2", "setting": "3.75 µM", "quantity": "inhibition", "result": "31.8%"}
{"Compound": "CN(C)C(=O)Nc1cc(CNc2ccccc2C(=O)Nc2ccc3cn(C)nc3c2)ccn1", "target or system": "SARS-CoV-2", "test": "viral replication", "system": "Vero C1008, USA-WA1/2020", "setting": "2.5 µM, reconfirmation", "quantity": "inhibition", "result": "40.6%"}
{"Compound": "O=C(O[C@@H]1Cc2c(O)cc(O)cc2O[C@@H]1c1cc(O)c(O)c(O)c1)c1cc(O)c(O)c(O)c1", "target or system": "SARS-CoV-2", "test": "viral cytopathic effect", "system": "Vero E6", "setting": "0.7812 µM", "quantity": "inhibition", "result": "0%"}
{"Compound": "C[C@@H](O)[C@]1(O)[C@H]2Nc3c(cc(O)c4c3C(=O)c3ccccc3C4=O)[C@]1(O)[C@H](O)c1cccc(O)c12", "target or system": "SARS-CoV-2", "test": "viral replication, mNeonGreen reporter virus", "setting": "50 µM", "quantity": "inhibition", "result": "33%"}
{"Compound": "O=C(CSc1nc2ccccc2c(=O)[nH]1)NNC(=O)c1ccccc1Br", "target or system": "SARS-CoV-2", "test": "virucidal activity, plaque reduction", "setting": "31.25 µM", "quantity": "inhibition", "result": "25.6 ± 5.1%"}
{"Compound": "C[C@@H]1CN(c2ncc(C(O)CO)cc2Cl)CCN1c1nc2c(-c3cc(F)c(F)c(F)c3)cc(C(F)(F)F)cc2[nH]1 (some centres unmarked)", "target or system": "SARS-CoV-2", "test": "viral replication", "system": "Vero E6, USA-WA1/2020", "setting": "2.5 µM", "quantity": "inhibition", "result": "69.5%"}
{"Compound": "CCOC(=O)[C@H]1O[C@@H]1C(=O)N[C@@H](CC(C)C)C(=O)NCCC(C)C", "target or system": "SARS-CoV-2", "setting": "30 µM", "quantity": "inhibition", "result": "48.9% and 88.3%"}
{"Compound": "O=C(CSc1nc2c(c(=O)[nH]1)CCCC2)NNC(=O)c1ccc(Cl)cc1", "target or system": "SARS-CoV-2", "test": "virucidal activity, plaque reduction", "setting": "62.5 µM", "quantity": "inhibition", "result": "34.4 ± 5.1%"}
{"Compound": "Cn1cnc(Cn2c(=O)[nH]/c(=N\\c3cc4cn(C)nc4cc3Cl)n(Cc3cc(F)c(F)cc3F)c2=O)n1", "system": "human, mild renal impairment, plasma", "setting": "oral, 375 mg single dose", "quantity": "Vz/F", "result": "19.7 L"}
{"Compound": "CCCc1ccc(OCC(=O)N(Cc2nc(-c3cccnc3)no2)C(C)C)cc1", "target or system": "rep main protease", "test": "reporter gene (Gaussia luciferase), inhibitor", "setting": "20 µM", "quantity": "inhibition", "result": "0.494%"}
{"Compound": "Nc1ncnc2c([C@@H]3N[C@H](CO)[C@@H](O)[C@H]3O)c[nH]c12", "target or system": "Chikungunya virus", "test": "viral replication", "system": "HeLa, AF 15561", "setting": "6.3 µM", "quantity": "inhibition", "result": "12.9%"}
{"Compound": "CC(C)=CCc1c(O)ccc(C(=O)/C=C/c2ccc(O)cc2)c1O", "target or system": "SARS-CoV-2", "test": "cytopathic effect", "system": "Vero E6", "setting": "3.125 µM, first run", "quantity": "inhibition", "result": "0%"}
{"Compound": "COc1cc(C2C(C#N)=C(N)Oc3c2c(C)nn3-c2ccc(Cl)cc2)cc(OC)c1OC (centres unmarked)", "target or system": "SARS-CoV-2", "test": "viral replication", "system": "Vero", "setting": "1 µM", "quantity": "inhibition", "result": "28.4%"}
{"Compound": "COc1cccc2c(N3CCc4ccccc4C3C)nc(Nc3ccc(F)cc3C)nc12 (centres unmarked)", "target or system": "SARS-CoV-2", "test": "viral replication", "system": "Vero C1008, USA-WA1/2020", "setting": "concentration not given, 24 h", "quantity": "inhibition", "result": "50 to 60%"}
{"Compound": "C[C@@H]1O[C@@H](Oc2ccc(CN=C=S)cc2)[C@H](O)[C@H](O)[C@H]1O", "target or system": "rep main protease", "test": "reporter gene (mKate2), inhibitor", "setting": "20 µM", "quantity": "inhibition", "result": "-0.522%"}
{"Compound": "CC[C@H](C)[C@H](NC(=O)[C@H](CC(C)C)NC(=O)[C@H](Cc1c[nH]c2ccccc12)NC(=O)[C@H](CCC(N)=O)NC(=O)[C@@H](NC(=O)[C@H](Cc1ccccc1)NC(=O)[C@H](C)NC(=O)[C@H](CCCCNC(=O)COCCOCCNC(=O)COCCOCCNC(=O)CC[C@H](NC(=O)CCCCCCCCCCCCCCCCCCC(=O)O)C(=O)O)NC(=O)[C@H](CCC(N)=O)NC(=O)[C@H](C)NC(=O)[C@@H](NC(=O)[C@H](CCCCN)NC(=O)[C@H](CC(=O)O)NC(=O)[C@H](CC(C)C)NC(=O)C(C)(C)NC(=O)[C@@H](NC(=O)[C@H](CO)NC(=O)[C@H](Cc1ccc(O)cc1)NC(=O)[C@H](CC(=O)O)NC(=O)[C@H](CO)NC(=O)[C@@H](NC(=O)[C@H](Cc1ccccc1)NC(=O)[C@@H](NC(=O)CNC(=O)[C@H](CCC(=O)O)NC(=O)C(C)(C)NC(=O)[C@@H](N)Cc1ccc(O)cc1)[C@@H](C)O)[C@@H](C)O)[C@@H](C)CC)[C@@H](C)CC)C(C)C)C(=O)N[C@@H](C)C(=O)NCC(=O)NCC(=O)N1CCC[C@H]1C(=O)N[C@@H](CO)C(=O)N[C@@H](CO)C(=O)NCC(=O)N[C@@H](C)C(=O)N1CCC[C@H]1C(=O)N1CCC[C@H]1C(=O)N1CCC[C@H]1C(=O)N[C@@H](CO)C(N)=O", "system": "healthy subjects, single ascending dose", "setting": "0.25 mg, baseline", "quantity": "serum AST", "result": "24.2 ± 6.1 U/L"}
{"Compound": "CC(C)(C)[C@H](NC(=O)C(F)(F)F)C(=O)N1CC2(CC2)C[C@H]1C(=O)N[C@H](C#N)C[C@@H]1CCNC1=O", "target or system": "SARS-CoV-2", "test": "viral replication, qRT-PCR viral RNA", "system": "Vero E6", "setting": "10 µM", "quantity": "inhibition", "result": "100%"}
{"Compound": "COc1cc(C)c(/C=C/C(C)=C/C=C/C(C)=C/C(=O)O)c(C)c1C", "target or system": "SARS-CoV-2", "test": "viral replication", "system": "Vero E6, USA-WA1/2020", "setting": "2.5 µM", "quantity": "inhibition", "result": "40%"}
{"Compound": "CC(C)(C)[C@H](NC(=O)C(F)(F)F)C(=O)N1C[C@H]2[C@@H]([C@H]1C(=O)N[C@H](C#N)C[C@@H]1CCNC1=O)C2(C)C", "target or system": "SARS-CoV-2", "test": "viral replication, infectious virus", "system": "Vero E6", "setting": "0.5 µM", "quantity": "inhibition", "result": "93.8%"}
{"Compound": "CCN(CC)Cc1ccc(Nc2ccnc3cc(Cl)ccc23)cc1O", "target or system": "SARS-CoV-2", "test": "viral replication", "system": "Vero E6, USA-WA1/2020", "setting": "2.5 µM", "quantity": "inhibition", "result": "44.4%"}
{"Compound": "Cn1cnc(Cn2c(=O)[nH]/c(=N\\c3cc4cn(C)nc4cc3Cl)n(Cc3cc(F)c(F)cc3F)c2=O)n1", "target or system": "SARS-CoV-2", "test": "viral replication", "system": "Vero C1008, XBB.1", "setting": "0.005716 µM", "quantity": "inhibition", "result": "0%"}
{"note": "For quick reference, copied from above:"}
{"Compound": "Cn1cnc(Cn2c(=O)[nH]/c(=N\\c3cc4cn(C)nc4cc3Cl)n(Cc3cc(F)c(F)cc3F)c2=O)n1", "system": "human, mild renal impairment, plasma", "setting": "oral, 375 mg single dose", "quantity": "Vz/F", "result": "19.7 L"}
{"Compound": "CCCc1ccc(OCC(=O)N(Cc2nc(-c3cccnc3)no2)C(C)C)cc1", "target or system": "rep main protease", "test": "reporter gene (Gaussia luciferase), inhibitor", "setting": "20 µM", "quantity": "inhibition", "result": "0.494%"}
{"Compound": "Nc1ncnc2c([C@@H]3N[C@H](CO)[C@@H](O)[C@H]3O)c[nH]c12", "target or system": "Chikungunya virus", "test": "viral replication", "system": "HeLa, AF 15561", "setting": "6.3 µM", "quantity": "inhibition", "result": "12.9%"}
